Measurements gathered from unrelated publications.
Each numbered part is a random draw from the data of one study; scales do not carry over between parts. Positions count from the first letter of the parent shown.

Block 1 — target: CCNE2, cyclin fold, Cln2 fusion (human); technique: yeast growth competition, sequencing; matrix: yeast; setting: weak parent motif; relative to: not given; reading: higher = stronger binding
Starting sequence: SAMHD1 docking peptide (human); ASKSRVQLFKDDP
| Substitution | normalised enrichment score |
| --- | --- |
| ASKSRVQLPKDDP [F9P] | 0.164 |
| ASMSRVQLFKDDP [K3M] | 0.151 |
| ASKSRVMLFKDDP [Q7M] | -0.227 |
| ASKSRVQLFKCDP [D11C] | 0.334 |
| ASYSRVQLFKDDP [K3Y] | 0.344 |
| ASKSRVQCFKDDP [L8C] | 0.111 |
| ASESRVQLFKDDP [K3E] | -0.177 |
| ASKSRVQLFKNDP [D11N] | 0.479 |
| ASKSRVQLFKKDP [D11K] | 0.322 |
| ASKSRVQLFPDDP [K10P] | -0.000471 |
| ASKSRPQLFKDDP [V6P] | -0.298 |
| ASKSRVQLFKVDP [D11V] | 0.674 |

Block 2 — technique: protein binding microarray; form: double-stranded DNA, one strand shown; matrix: in vitro; tested at: not given; relative to: not given; reading: higher = stronger binding
Target: Histone acetyltransferase KAT6A, both winged helices, GST fusion (KAT6A, Homo sapiens, UniProt Q92794, residues 1-181)
Setting: 8-mer, flanks averaged, mean of 2 arrays, mostly near background
Target sequence (chain): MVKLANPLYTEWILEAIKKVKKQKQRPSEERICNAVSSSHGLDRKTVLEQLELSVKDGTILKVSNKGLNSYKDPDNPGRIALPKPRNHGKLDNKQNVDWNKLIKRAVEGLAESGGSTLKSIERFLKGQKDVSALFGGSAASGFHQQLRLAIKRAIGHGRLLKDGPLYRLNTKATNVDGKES
| Oligonucleotide | E-score |
| --- | --- |
| GATTGGTA | -0.0975 |
| CAGGAATC | -0.16 |
| TCCAACGA | -0.161 |
| GTGACAGA | -0.0135 |
| ATCTGTCA | -0.108 |
| ATGCTTCA | 0.0059 |
| GACGCAGC | 0.0895 |
| CTAGAGTC | -0.0245 |
| GGACCCCC | 0.021 |
| ACATCGCA | 0.0643 |
| AACACTAA | 0.076 |
| AGACGGCT | 0.196 |
| AGTTCGGG | -0.0816 |
| ACCGCACT | 0.141 |

Block 3 — technique: DHFR PCA, deep sequencing; matrix: yeast; with: (+)-ABA 0 µM; relative to: wild-type fitted maximum; reading: higher = stronger binding
Target: ABI1, truncated, D143A, DHFR fusion (Arabidopsis thaliana)
Setting: methotrexate growth selection, single substitutions
Starting sequence: PYL1, truncated, DHFR fusion (Arabidopsis thaliana); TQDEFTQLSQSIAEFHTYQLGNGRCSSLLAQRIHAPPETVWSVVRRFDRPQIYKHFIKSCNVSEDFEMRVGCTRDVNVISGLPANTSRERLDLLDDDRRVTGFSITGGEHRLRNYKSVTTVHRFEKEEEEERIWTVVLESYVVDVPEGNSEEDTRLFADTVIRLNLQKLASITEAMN
| Substitution | relative binding score [%] |
| --- | --- |
| W134V | 16.6 |
| E89I | 3.7 |
| F157G | -3.98 |
| R88E | 8.91 |
| K54F | -0.342 |

Mixed results
| Substance | target | test | system | setting | scale | endpoint | value |
| --- | --- | --- | --- | --- | --- | --- | --- |
| PhoQ, residues 284 288 289 292 302 303 WSHMKI | PhoP, residues 12 14 15 18 19 TPLRH (Escherichia coli, UniProt P23836) | Sort-seq, measured: YFP reporter | E. coli | PhoQ-PhoP variant library, with: 10 µM Mg2+ | relative to: high Mg2+ state, higher = stronger signaling | fold induction | 0.885 |

Excerpt of the above (block 1):
| Substitution | normalised enrichment score |
| --- | --- |
| ASKSRPQLFKDDP [V6P] | -0.298 |
| ASKSRVQLFKNDP [D11N] | 0.479 |
| ASKSRVQLFPDDP [K10P] | -0.000471 |
| ASKSRVMLFKDDP [Q7M] | -0.227 |
| ASKSRVQLPKDDP [F9P] | 0.164 |
